Measured values gathered from unrelated publications.
Protocols differ between the studies behind these lines.
CRBN/Zinc finger protein Aiolos: CRBN/Zinc finger protein Aiolos (Homo sapiens, UniProt Q96SW2+Q9UKT9)
IL1RL2: Interleukin-1 receptor-like 2 (IL1RL2, Homo sapiens, UniProt Q9HB29)
Chain of UniProt Q9HB29 (whole entry, looked up): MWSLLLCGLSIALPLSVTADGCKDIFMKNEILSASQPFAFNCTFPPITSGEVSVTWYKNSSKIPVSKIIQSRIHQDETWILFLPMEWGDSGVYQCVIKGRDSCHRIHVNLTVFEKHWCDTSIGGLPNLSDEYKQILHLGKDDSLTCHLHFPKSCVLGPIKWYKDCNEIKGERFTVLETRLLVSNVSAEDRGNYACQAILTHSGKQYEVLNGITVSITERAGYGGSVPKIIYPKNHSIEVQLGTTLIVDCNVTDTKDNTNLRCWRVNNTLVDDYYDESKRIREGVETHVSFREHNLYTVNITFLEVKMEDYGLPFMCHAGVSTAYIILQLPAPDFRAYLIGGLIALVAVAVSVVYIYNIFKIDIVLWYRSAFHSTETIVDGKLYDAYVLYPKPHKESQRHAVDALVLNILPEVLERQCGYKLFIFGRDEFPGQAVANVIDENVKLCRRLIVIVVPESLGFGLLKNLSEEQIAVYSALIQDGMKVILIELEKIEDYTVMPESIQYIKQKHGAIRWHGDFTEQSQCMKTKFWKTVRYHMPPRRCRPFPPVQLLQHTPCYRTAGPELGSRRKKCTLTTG
MAPK9: Mitogen-activated protein kinase 9 (MAPK9, Homo sapiens, UniProt P45984)
Chain of UniProt P45984 (whole entry, looked up): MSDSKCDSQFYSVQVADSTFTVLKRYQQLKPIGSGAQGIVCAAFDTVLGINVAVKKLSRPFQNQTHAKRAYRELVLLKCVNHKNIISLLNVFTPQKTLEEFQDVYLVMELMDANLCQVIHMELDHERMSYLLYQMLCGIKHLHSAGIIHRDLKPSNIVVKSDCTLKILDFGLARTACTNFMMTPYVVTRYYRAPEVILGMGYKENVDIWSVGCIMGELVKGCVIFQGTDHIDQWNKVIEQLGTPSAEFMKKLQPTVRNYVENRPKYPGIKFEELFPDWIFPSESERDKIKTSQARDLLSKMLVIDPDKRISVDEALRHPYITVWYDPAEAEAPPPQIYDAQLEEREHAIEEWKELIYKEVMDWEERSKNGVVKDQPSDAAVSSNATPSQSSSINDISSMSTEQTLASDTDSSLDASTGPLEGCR
PNLIP: Pancreatic triacylglycerol lipase (PNLIP, Homo sapiens, UniProt P16233)
Chain of UniProt P16233 (whole entry, looked up): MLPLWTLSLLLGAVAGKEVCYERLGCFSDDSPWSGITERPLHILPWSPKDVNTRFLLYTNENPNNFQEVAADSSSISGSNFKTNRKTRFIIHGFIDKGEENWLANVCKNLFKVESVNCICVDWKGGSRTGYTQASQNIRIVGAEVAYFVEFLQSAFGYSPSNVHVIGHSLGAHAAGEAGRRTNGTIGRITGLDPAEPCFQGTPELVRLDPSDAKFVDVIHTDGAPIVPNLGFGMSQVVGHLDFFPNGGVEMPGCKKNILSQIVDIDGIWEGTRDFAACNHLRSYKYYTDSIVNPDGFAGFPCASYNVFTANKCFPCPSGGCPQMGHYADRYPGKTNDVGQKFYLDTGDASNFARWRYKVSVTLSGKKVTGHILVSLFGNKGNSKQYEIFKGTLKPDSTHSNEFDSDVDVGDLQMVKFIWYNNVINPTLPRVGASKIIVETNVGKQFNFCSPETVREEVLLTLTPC
Chain of UniProt P20151 (whole entry, looked up): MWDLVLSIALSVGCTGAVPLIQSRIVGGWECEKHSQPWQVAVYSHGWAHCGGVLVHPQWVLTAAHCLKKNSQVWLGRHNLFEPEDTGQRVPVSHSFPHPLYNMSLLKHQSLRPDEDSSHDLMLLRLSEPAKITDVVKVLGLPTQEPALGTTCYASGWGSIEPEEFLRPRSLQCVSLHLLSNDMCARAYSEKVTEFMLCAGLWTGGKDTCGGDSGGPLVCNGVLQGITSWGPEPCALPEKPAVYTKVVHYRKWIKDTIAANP
Chain of UniProt P00519 (whole entry, unmodified, looked up): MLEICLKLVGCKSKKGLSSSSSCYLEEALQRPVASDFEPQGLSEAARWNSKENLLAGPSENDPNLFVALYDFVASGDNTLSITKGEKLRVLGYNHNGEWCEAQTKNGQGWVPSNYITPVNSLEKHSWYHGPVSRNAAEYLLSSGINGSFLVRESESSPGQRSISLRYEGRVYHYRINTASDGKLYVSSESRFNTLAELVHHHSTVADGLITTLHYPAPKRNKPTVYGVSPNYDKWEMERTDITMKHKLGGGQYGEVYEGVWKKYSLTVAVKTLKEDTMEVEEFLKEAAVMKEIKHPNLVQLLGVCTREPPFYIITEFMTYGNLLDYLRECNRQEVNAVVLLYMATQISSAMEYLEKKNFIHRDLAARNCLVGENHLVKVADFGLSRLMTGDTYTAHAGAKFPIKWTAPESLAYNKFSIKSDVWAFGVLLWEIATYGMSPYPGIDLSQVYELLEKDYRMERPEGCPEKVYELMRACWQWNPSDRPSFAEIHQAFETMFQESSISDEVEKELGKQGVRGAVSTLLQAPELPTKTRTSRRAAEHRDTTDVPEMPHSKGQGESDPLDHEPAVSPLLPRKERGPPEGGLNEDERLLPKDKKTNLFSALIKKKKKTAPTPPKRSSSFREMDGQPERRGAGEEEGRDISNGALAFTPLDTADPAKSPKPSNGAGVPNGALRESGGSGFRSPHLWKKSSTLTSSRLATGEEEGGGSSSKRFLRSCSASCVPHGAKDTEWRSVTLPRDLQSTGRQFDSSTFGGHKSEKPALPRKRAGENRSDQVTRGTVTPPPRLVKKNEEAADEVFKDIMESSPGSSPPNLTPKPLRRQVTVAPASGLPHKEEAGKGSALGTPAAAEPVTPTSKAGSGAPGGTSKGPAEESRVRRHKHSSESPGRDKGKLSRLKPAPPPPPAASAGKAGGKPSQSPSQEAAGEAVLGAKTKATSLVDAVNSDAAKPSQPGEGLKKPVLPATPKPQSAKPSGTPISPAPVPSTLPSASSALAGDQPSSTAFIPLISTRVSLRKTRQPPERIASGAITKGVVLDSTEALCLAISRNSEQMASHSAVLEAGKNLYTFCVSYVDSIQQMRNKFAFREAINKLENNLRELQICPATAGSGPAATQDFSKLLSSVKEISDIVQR
Chain of UniProt P51575 (whole entry, unmodified, looked up): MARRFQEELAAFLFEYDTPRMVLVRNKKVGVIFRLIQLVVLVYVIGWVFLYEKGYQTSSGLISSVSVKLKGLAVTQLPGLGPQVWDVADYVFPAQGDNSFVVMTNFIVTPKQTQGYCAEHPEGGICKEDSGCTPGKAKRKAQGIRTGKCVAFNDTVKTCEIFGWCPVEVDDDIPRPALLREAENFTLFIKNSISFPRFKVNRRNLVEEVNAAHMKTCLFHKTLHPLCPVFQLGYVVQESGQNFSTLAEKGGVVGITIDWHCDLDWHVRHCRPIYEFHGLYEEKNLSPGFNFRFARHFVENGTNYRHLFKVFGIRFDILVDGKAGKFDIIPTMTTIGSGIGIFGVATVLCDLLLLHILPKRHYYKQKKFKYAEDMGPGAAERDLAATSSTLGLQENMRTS
Chain of UniProt P42336 (whole entry, unmodified, looked up): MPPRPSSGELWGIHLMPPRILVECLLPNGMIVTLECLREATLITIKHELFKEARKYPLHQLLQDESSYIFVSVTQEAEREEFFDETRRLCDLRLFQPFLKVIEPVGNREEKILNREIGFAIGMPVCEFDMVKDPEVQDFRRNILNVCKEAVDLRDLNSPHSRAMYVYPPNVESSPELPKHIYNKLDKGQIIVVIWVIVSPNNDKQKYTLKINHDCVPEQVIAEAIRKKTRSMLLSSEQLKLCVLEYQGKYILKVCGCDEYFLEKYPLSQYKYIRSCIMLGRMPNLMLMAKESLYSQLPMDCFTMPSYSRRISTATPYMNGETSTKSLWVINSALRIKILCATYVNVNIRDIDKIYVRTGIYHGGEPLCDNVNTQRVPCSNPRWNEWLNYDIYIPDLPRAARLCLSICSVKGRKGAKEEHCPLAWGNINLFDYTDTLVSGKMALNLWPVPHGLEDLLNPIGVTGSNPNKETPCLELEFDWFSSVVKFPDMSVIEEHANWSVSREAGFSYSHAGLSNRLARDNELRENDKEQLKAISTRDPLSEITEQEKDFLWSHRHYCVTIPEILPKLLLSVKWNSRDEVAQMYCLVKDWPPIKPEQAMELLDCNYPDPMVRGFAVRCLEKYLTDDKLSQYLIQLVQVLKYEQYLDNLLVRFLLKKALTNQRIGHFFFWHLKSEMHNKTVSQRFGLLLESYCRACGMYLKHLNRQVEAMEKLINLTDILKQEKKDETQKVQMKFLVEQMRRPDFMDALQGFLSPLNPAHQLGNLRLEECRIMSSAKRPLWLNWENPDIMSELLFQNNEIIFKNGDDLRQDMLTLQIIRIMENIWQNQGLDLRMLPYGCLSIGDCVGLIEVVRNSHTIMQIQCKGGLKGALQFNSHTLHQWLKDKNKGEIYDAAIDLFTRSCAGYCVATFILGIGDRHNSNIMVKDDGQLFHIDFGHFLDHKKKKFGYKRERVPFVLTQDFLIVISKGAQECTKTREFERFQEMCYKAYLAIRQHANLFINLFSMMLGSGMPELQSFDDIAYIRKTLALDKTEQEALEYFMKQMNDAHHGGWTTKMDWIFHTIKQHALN
Chain of UniProt P45983 (whole entry, looked up): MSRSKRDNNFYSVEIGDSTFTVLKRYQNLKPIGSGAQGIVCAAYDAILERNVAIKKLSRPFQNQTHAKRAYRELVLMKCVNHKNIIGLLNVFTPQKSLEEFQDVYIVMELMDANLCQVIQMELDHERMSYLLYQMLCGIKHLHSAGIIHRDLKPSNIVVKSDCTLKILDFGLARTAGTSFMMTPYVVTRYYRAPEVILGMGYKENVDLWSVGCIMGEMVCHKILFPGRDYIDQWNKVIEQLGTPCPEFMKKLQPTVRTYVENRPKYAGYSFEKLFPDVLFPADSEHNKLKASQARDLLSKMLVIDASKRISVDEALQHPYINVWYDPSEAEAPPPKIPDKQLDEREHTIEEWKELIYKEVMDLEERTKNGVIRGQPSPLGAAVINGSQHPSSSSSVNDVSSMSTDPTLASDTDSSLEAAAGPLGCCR

Structure (SMILES)	target	test	system	setting	how to read	remaining activity
C[C@](C(=O)NC1CCOCC1)(c1cncnc1)N(C(=O)[C@H](F)Cl)c1ccc(OC(F)(F)Cl)cc1	Kallikrein-2 (Homo sapiens, UniProt P20151)	enzyme activity, inhibitor	–	10 µM	–	103%
O=C1CCC(N2C(=O)c3cccc4c(Cn5cc(C6CCNCC6)nn5)ccc2c34)C(=O)N1 (stereo not drawn)	CRBN/Zinc finger protein Aiolos	protein level, degrader, western blot	NCI-H929	10 nM, 4 h	–	42.7%
Cc1ccc(-c2c(/C=C(\C#N)C(=O)NC(C)C)n(CCCO)c3ncnc(N)c23)cc1	Tyrosine-protein kinase ABL1 (ABL1, Homo sapiens, UniProt P00519, F317L)	enzyme activity, inhibitor	–	1 µM	–	76%
O=C1CCC(N2C(=O)c3cccc4c(Cc5cnn(C6CCN(C(=O)C7(O)CC7)CC6)c5)ccc2c34)C(=O)N1 (stereo not drawn)	CRBN/Zinc finger protein Aiolos	protein level, degrader, western blot	NCI-H929	10 nM, 4 h	–	7.19%
N#Cc1cnc2sc(C(=O)O)cc2c1N1CCc2[nH]nc(C(=O)N[C@@H](CC(=O)NCCOCCN3CCOCC3)c3cccc(Br)c3)c2C1	IL1RL2	SEAP reporter gene, antagonist	HEK-Blue IL-36R cells	3.7 µM, 6 h, together with: IL-36β 0.003 ng/mL	relative to: untreated	99.8%
Cc1cc(C(=O)Nc2nc3cccc(C)c3n2[C@H]2CCCCN(C(=O)/C=C/CN(C)C)C2)ccn1	CDC2-like kinase 1 (Trypanosoma brucei brucei, UniProt Q382U0)	kinase activity, ADP-Glo	–	0.3125 µM	–	22.8%
O=C1CCC(N2C(=O)c3cccc4c(Cc5cnn(C6CCN(C(=O)CO)CC6)c5)ccc2c34)C(=O)N1 (stereo not drawn)	CRBN/Zinc finger protein Aiolos	protein level, degrader, western blot	NCI-H929	1 nM, 4 h	–	46.9%
C#CCOC(=O)[C@]1(C)C=C(C(=O)Nc2cccc(C(=O)Nc3ccc(C)c(Nc4nccc(-c5cccnc5)n4)c3)c2)C(=O)CC1	MAPK9	enzyme activity, inhibitor	–	8.363e-05 µM, unit not given	relative to: vehicle	0.949
Nc1nc(Nc2ccccc2)sc1C(=O)c1ccccc1	AMP-activated protein kinase	enzyme activity, inhibitor	–	10 µM	–	41%
CC(C)(O)C(=O)N1CCC(n2cc(Cc3ccc4c5c(cccc35)C(=O)N4C3CCC(=O)NC3=O)cn2)CC1 (stereo not drawn)	CRBN/Zinc finger protein Aiolos	protein level, degrader, western blot	NCI-H929	100 pM, 4 h	–	98.7%
CC(C)[C@@H]1NC(=O)[C@H](Cc2ccccc2)NC(=O)CSC[C@@H](C(N)=O)NC(=O)[C@H](CCC(=O)O)NC(=O)[C@H](CO)NC(=O)[C@H](Cc2c[nH]c3cccc(Cl)c23)NC(=O)[C@H](C2CCCCC2)NC(=O)[C@H](C(C)C)NC(=O)[C@H](Cc2ccc(O)cc2)NC(=O)[C@H](CC(=O)O)NC(=O)[C@H](Cc2c[nH]c3ccccc23)NC(=O)[C@H](Cc2ccc(N)nc2)NC(=O)[C@H](Cc2c[nH]c3ccc(Cl)cc23)NC(=O)[C@H](CCC(=O)O)NC1=O	IL1RL2	reporter gene (SEAP), inhibitor, HEK-Blue IL-36R reporter	HEK-Blue IL-36R cells	0.41 µM, 6 h, together with: IL-36β 100 ng/mL	–	96.5%
COc1cc(Nc2nc(C)cc(-c3cnn4nc(OC)ccc34)n2)cc(C(F)(F)F)c1	Phosphatidylinositol 4,5-bisphosphate 3-kinase catalytic subunit alpha isoform (PIK3CA, Homo sapiens, UniProt P42336, I800L)	inhibitor	–	1 µM	relative to: control	46%
O=C1CCC(N2Cc3c(OCc4cn(C5CCNCC5)nn4)cccc3C2=O)C(=O)N1 (stereo not drawn)	CRBN/Zinc finger protein Aiolos	protein level, degrader, western blot	NCI-H929	1 nM, 4 h	–	95.6%
Cc1cc(NC(=O)c2cccc(N)c2)ccc1Nc1nccc(-c2cccnc2)n1	MAPK9	enzyme activity, inhibitor	–	133.3 µM, unit not given	relative to: vehicle	0.0264
O=C1CCC(N2C(=O)c3cccc4c(Cc5cnn(C6CCN(C(=O)CS)CC6)c5)ccc2c34)C(=O)N1 (stereo not drawn)	CRBN/Zinc finger protein Aiolos	protein level, degrader, western blot	NCI-H929	1 nM, 4 h	–	102%
COc1ccccc1-c1ccncc1C(=O)Nc1nnc(OCc2ccc(Cl)cc2)s1	DNA polymerase theta, helicase domain (POLQ, Homo sapiens, UniProt O75417)	ATPase activity, ADP-Glo	–	0.24 µM	relative to: 0 µM cpd	26%
COC(=O)[C@]1(C(C)C)C=C(C(=O)Nc2cccc(C(=O)Nc3ccc(Nc4nccc(-c5cccnc5)n4)c(C)c3)c2)C(=O)CC1	Mitogen-activated protein kinase 8 (MAPK8, Homo sapiens, UniProt P45983)	kinase activity, inhibitor	–	0.006774 µM, unit not given, together with: 10 mM glutathione	relative to: no inhibitor	0.995
O=C1c2ccc(O)cc2C(=O)c2ccc(O)cc21	PNLIP	enzyme activity, inhibitor, fluorescence	–	50 µM	–	8.34%
O=C1CCC(N2C(=O)c3cccc4c(Cc5ccc(CN6CCNCC6)cc5)ccc2c34)C(=O)N1 (stereo not drawn)	CRBN/Zinc finger protein Aiolos	protein level, degrader, western blot	NCI-H929	1 nM, 4 h	–	79.2%
COC(=O)CN1CCCc2cc3cc(C(=O)NC(Cc4cccc(Cl)c4)C(=O)NCC=CS(=O)(=O)c4ccccc4)c(=O)oc3cc21 (stereo not drawn)	Cathepsin S (CTSS, Homo sapiens, UniProt P25774)	inhibitor	–	5 µM, 60 min, together with: Z-Phe-Arg-AMC	relative to: uninhibited control	6%
O=C(O)CN(CC(=O)O)Cc1cc2c(c(O)c1O)C(=O)c1c(O)cccc1C2=O	PNLIP	enzyme activity, inhibitor, fluorescence	–	50 µM	–	12.6%
O=C(Nc1cc(C(=O)Nc2ccc(S(=O)(=O)O)cc2S(=O)(=O)O)cc(C(=O)Nc2ccc(S(=O)(=O)O)cc2S(=O)(=O)O)c1)Nc1cc(C(=O)Nc2ccc(S(=O)(=O)O)cc2S(=O)(=O)O)cc(C(=O)Nc2ccc(S(=O)(=O)O)cc2S(=O)(=O)O)c1	P2X purinoceptor 1 (P2RX1, Homo sapiens, UniProt P51575, F188L)	calcium influx, antagonist	–	10 µM, together with: α,β-methylene ATP submaximal	–	0%
O=c1c2ccccc2c(=O)c2c1ccc1[nH]c3c(ccc4c(=O)c5ccccc5c(=O)c43)[nH]c12	PNLIP	enzyme activity, inhibitor, fluorescence	–	50 µM	–	3.9%
COC(=O)[C@@]1(C)C=C(C(=O)Nc2cccc(C(=O)Nc3ccc(Nc4nccc(-c5cccnc5)n4)c(C)c3)c2)C(=O)CC1	MAPK9	enzyme activity, inhibitor	–	0.0007527 µM, unit not given	relative to: vehicle	0.983

Some of these lines once more:
Structure (SMILES)	target	test	system	setting	how to read	remaining activity
Cc1cc(NC(=O)c2cccc(N)c2)ccc1Nc1nccc(-c2cccnc2)n1	MAPK9	enzyme activity, inhibitor	–	133.3 µM, unit not given	relative to: vehicle	0.0264
O=C1CCC(N2C(=O)c3cccc4c(Cc5cnn(C6CCN(C(=O)CO)CC6)c5)ccc2c34)C(=O)N1 (stereo not drawn)	CRBN/Zinc finger protein Aiolos	protein level, degrader, western blot	NCI-H929	1 nM, 4 h	–	46.9%
CC(C)[C@@H]1NC(=O)[C@H](Cc2ccccc2)NC(=O)CSC[C@@H](C(N)=O)NC(=O)[C@H](CCC(=O)O)NC(=O)[C@H](CO)NC(=O)[C@H](Cc2c[nH]c3cccc(Cl)c23)NC(=O)[C@H](C2CCCCC2)NC(=O)[C@H](C(C)C)NC(=O)[C@H](Cc2ccc(O)cc2)NC(=O)[C@H](CC(=O)O)NC(=O)[C@H](Cc2c[nH]c3ccccc23)NC(=O)[C@H](Cc2ccc(N)nc2)NC(=O)[C@H](Cc2c[nH]c3ccc(Cl)cc23)NC(=O)[C@H](CCC(=O)O)NC1=O	IL1RL2	reporter gene (SEAP), inhibitor, HEK-Blue IL-36R reporter	HEK-Blue IL-36R cells	0.41 µM, 6 h, together with: IL-36β 100 ng/mL	–	96.5%
